Measurements pooled from the literature.
Values joined by “and” are separate records of one study, mostly repeats; a detail may differ. ± marks the error that the study gave.

For `Cl.[2H]C([2H])([2H])CC(=O)c1cnc(NC(=O)C2CC2)cc1Nc1cccc(-c2ncn(C([2H])([2H])[2H])n2)c1OC`, the AUC(0-tau) was 1920 ng·h/mL (geometric mean; human; oral, 20 mg twice daily, day 14, fasted, tablet, multiple dose).
`FC(F)(F)c1ccc(CNc2ccc(Cc3c[nH]c4ncc(Cl)cc34)cn2)cn1` — result for “treatment-related adverse events”: 0% (item: Arthralgia; patients with advanced solid tumours, non-TGCT cohort; oral, 1000 mg/day, any grade).
`O=C(O)c1cccc(C(=O)O)c1`: “apparent dissolution enthalpy” 7.56 kJ/mol (betaine/ethylene glycol DES-water; DES mass fraction 0.40).
`O=C(O)CCC(=O)O.[2H]C([2H])([2H])Oc1cc(C)c2[nH]ccc2c1CN1CC[C@@H](C2CC2)C[C@H]1c1ccc(C(=O)O)cc1`: “subjects with muscle pain TEAE” 0% (multiple ascending dose; healthy Chinese subjects; 125 mg twice daily).
For `CCn1c(C(=O)N(C2CC2)C2CC2)cc2c3c(ncn3C)c(Nc3cc(C)n(C)n3)nc21`, the plasma concentration was 1230 ng/mL (cancer patients; oral, 200 mg single dose, day 1, 6.0 h).
The DT50 of `COc1ccnc(C(=O)NCC(=O)O)c1O` is reported as 21.6 days (aerobic dark soil incubation; sandy loam soil; 20 °C, persistence endpoint).
The renal clearance of `OC[C@H]1O[C@@H](c2ccc(F)c(Cc3cc4ccccc4s3)c2)[C@H](O)[C@@H](O)[C@@H]1O` is reported as 2.07 ± 0.322 mL/min (Japanese type 2 diabetes patients, plasma; oral, 50 mg/day, day 1).
Under “mean plasma concentration”, `CCN1CCN(Cc2ccc(NC(=O)c3ccc(C)c(NC(=O)c4cncc(-c5cccs5)c4)c3)cc2C(F)(F)F)CC1` is recorded as 0.488 µg/mL (LC-MS/MS; C57BL/6 mouse, plasma; intraperitoneal, 10 mg/kg single dose, 0.5 h).
`OCc1nc2ccc(NCc3ccc(C(F)(F)F)cc3)cc2[nH]1` has a tissue/plasma ratio of 3.5 ± 0.2 (Balb/c mouse, male, brain; intravenous, 1 mg/kg, 6 h; baseline: tissue over plasma).
Under “urinary calcium excretion change”, `Cc1ccc([C@@H]2O[C@H](CO)[C@@H](O)[C@H](O)[C@H]2O)cc1Cc1ccc(-c2ccc(F)cc2)s1` is recorded as -41.2 mg (Japanese type 2 diabetes patients; 400 mg, day 6, 24 h urine collection; baseline: baseline).
For `NC1(C(=O)N[C@@H](CCO)c2ccc(Cl)cc2)CCN(c2nc[nH]c3nccc2-3)CC1`, “incidence of Stomatitis” read 0% (metastatic CRPC patients; 400 mg b.i.d., any grade, treatment-related, together with: enzalutamide 160 mg daily).
`O=C1NCCc2nc(OCc3cccc(F)c3)ccc21`: “Irwin test score” 0.2 (item: loss of Grasping; Sprague-Dawley rat male; oral, 100 mg/kg, 4 h; direction not given).
`O=C(Nc1ccc(OC(F)(F)Cl)cc1)c1cnc(N2CC[C@@H](O)C2)c(-c2ccn[nH]2)c1`: “any-grade event rate” 8.2% (per treatment cycle, item: amylase increase; human patients; oral, dose not given, 28 day cycle, dose-finding study).
`COc1ccc([C@@H](O)c2cc(-c3ncnc4cc(N5CCOCC5)ccc34)c(F)cc2Cl)nn1`: “drug-related lymphocyte count decrease” 50% (locally advanced rectal cancer patients; 250 mg, together with: capecitabine and radiotherapy).
`COc1cccc(OC)c1-c1cc(C(=O)NC2(C(=O)O)C3CC4CC(C3)CC2C4)nn1-c1ccc(C(=O)N(C)CCCN(C)CCCN(C)C(=O)CN2CCN(CC(=O)[O-])CCN(CC(=O)[O-])CCN(CC(=O)[O-])CC2)cc1C(C)C.[177Lu+3]` (centres unmarked) — result for “tumour-to-small intestine ratio”: 43.3 (mouse HT-29 xenograft; 24 h, biodistribution; baseline: tumour over small intestine).
For `CNC(=O)c1ccc(-c2cnc3ncc(Cc4ccc5ncccc5c4)n3n2)cc1F`, “patients with adverse event” read 8% (item: Insomnia, all grades; cancer patients; oral, 600 mg twice daily, expansion cohort, any causality).
`COc1ccnc(C(=O)N[C@@H](CO)C(=O)O)c1OCOC(=O)C(C)C`: “DT50 whole system” 1.4 days (Staffordshire loam sediment, aerobic dark; 20 °C).
The recovery of `C=CC(=O)Nc1cc(Nc2nccc(-c3cn(C)c4ccccc34)n2)c(OC)cc1N(C)CCN(C)C` is reported as 92.9% (storage stability; human plasma; 10 d, -80 °C, LLOQ level).
`N[C@@H](CC(=O)O)C(=O)OC(C(=O)O)c1ccccc1[N+](=O)[O-].O=C(O)C(F)(F)F` (mixture of isomers): “hydrolysis half-life, B isomer” 1540 ± 36 min (1H NMR, dark; 50 mM sodium phosphate; concentration not given, pH 7.0, room temperature, 12.5% DMSO-d6).
For `O=C(Nc1cnccc1Cl)N1CCN(Cc2ccc3c(c2)OC(F)(F)O3)CC1`, “postural dizziness incidence” read 0% (multiple ascending dose; young men; 10 mg, treatment-emergent adverse events).
`CC(C)n1c(Nc2cccnc2)nc2cnc(Nc3ccc(N4CCN(C)CC4)cc3)nc21`: “subjects with adverse event” 7.1% (item: white blood cell count elevated; healthy male subjects; oral, 100 mg, study, together with: gemfibrozil).
`N[C@@H]1c2ccccc2OC12CCN(c1cnc3c(N4CCCc5ncccc54)n[nH]c3n1)CC2` gave an AUC(0-tau) of 10500 ng·h/mL (advanced metastatic solid tumour patients, plasma; oral, 100 mg once daily, cycle 1 day 15, geometric mean).
For `CCc1cc(C(=O)NC)c2nccc(N3CCc4c(cc(Cn5ccnc5)cc4-c4cn(C)nc4C(F)(F)F)C3=O)c2c1`, “change in clinical chemistry or haematology parameter” read -4.3% (item: CREA; Sprague Dawley rat; oral, 100 mg/kg once daily, 7 days; baseline: vehicle).
`OC[C@H]1O[C@@H](c2ccc(Cl)c(Cc3ccc(O[C@H]4CCOC4)cc3)c2)[C@H](O)[C@@H](O)[C@@H]1O`: “change in Magnesium” 0.1 mEq/L (Japanese type 1 diabetes patients, blood; 25 mg, day 28; baseline: baseline).
`CCOc1c([C@H](C)n2nc(C)c3c(N)ncnc32)cc(Cl)c(F)c1[C@@H]1CNC(=O)C1` has an ECG observations of 0% (item: QRS >100 to ≤110 ms; previously treated B-cell malignancy; oral, 10 mg once daily, baseline below thresholds).
For `CC[C@@H]([C@H](C)O)n1ncn(-c2ccc(N3CCN(c4ccc(OC[C@@H]5CO[C@@](Cn6cncn6)(c6ccc(F)cc6F)C5)cc4)CC3)cc2)c1=O`, “stability relative error” read -0.7% (rat plasma; 2 ng/mL, 21 days, -80 °C; baseline: nominal concentration).
Under “systolic blood pressure”, `CCN1/C(=C/C(C)=O)Sc2ccc(F)cc21` is recorded as 110 ± 7 mmHg (cynomolgus monkey; oral, 10 mg/kg, 1 h post-dose).
`CN(C)C(=N)N=C(N)N`: “subjects with adverse event” 0% (item: vessel puncture site pain; healthy men; oral, dose not given, 8 days, treatment-emergent, crossover trial).
`N#Cc1ccc2c(c1)[C@H]1CCCN(C(=O)c3ccc4[nH]cnc4c3)[C@H]1C2` — result for “pre-dose plasma concentration”: 1820 nmol/L (human, plasma; 240 mg once daily, day 28).
With `N#Cc1ccc2c(c1)[C@H]1CCCN(C(=O)c3ccc4[nH]cnc4c3)[C@H]1C2` the DHEA-S was 8 µmol/L (human females; 80 mg, end of trial).
`C[C@H]1Oc2cc(cnc2N)-c2c(nn(C)c2C#N)CN(C)C(=O)c2ccc(F)cc21` gave a clearance of 151 mL/min (population PK; normal hepatic function (NCI A), plasma; oral, 100 mg, mean, single dose).
Under “treatment-emergent adverse events”, `O=C(Nc1nc2cccc(-c3ccc(CN4CCS(=O)(=O)CC4)cc3)n2n1)C1CC1` is recorded as 0% (item: blood amylase increased; rheumatoid arthritis patients; oral, 150 mg once daily, 4 weeks, any relatedness).
`CC(=O)CC(c1ccccc1)c1c(O)c2ccccc2oc1=O` (centres unmarked) — result for metabolic stability: “stable” (human liver microsomes; together with: NADPH).
`COc1ccc([C@@H](O)c2cc(-c3ncnc4cc(N5CCOCC5)ccc34)c(F)cc2Cl)nn1`: “renal clearance range” 0.833 to 5.15 mL/min (healthy volunteers, urine; oral, 100 mg, geometric means over treatments).
The Vss of `CC1(C)CCC(CN2CCN(c3ccc(C(=O)NS(=O)(=O)c4ccc(NCC5CCOCC5)c([N+](=O)[O-])c4)c(Oc4cnc5[nH]ccc5c4)c3)CC2)=C(c2ccc(Cl)cc2)C1` is reported as 4.04 L/kg (human male, plasma; oral).
`Cc1cc(NC2CCN(C(=O)OC3CCN(C(=O)/C=C/CN(C)C)C3)CC2)n2ncc(C(C)C)c2n1` (centres unmarked): “patients with adverse event” 27% (Phase I dose escalation CTCAE v4.0, item: AST increased; patients with advanced solid tumours; dose not given, TIW dosing any grade).
`Nc1ncnc2c1ncn2[C@H]1C[C@@H]2OP(=O)(O)OC[C@H]3O[C@@H](n4cnc5c(N)ncnc54)C[C@@H]3OP(=O)(O)OC[C@H]2O1` gave a total bilirubin of 3.72 ± 1.05 µmol/L (non-tumor-bearing mice, serum; intravenous, 1 mg/kg, toxicity study).
`Cc1ccc(S(=N)C2CC2)cc1` (centres unmarked) gave a metabolic stability of less than 23% (human liver microsomes; baseline: hepatic blood flow).
For `Cc1cc(C)cc(C(=O)c2c(C(C)C)c(=O)[nH]c(=O)n2Cc2ccnc(N)c2)c1`, the AUMC was 0.659 ± 0.195 µg·h²/mL (male Sprague-Dawley rat, plasma; intravenous, 20 mg/kg).
For `CC(C)C[C@H](NC(=O)[C@H](CC(C)C)NC(=O)[C@H](Cc1c[nH]c2ccccc12)NC(=O)[C@H](CCC(=O)O)NC(=O)[C@@H](NC(=O)[C@H](Cc1ccccc1)NC(=O)[C@H](CCC(=O)O)NC(=O)[C@H](CCCCNC(=O)COCCOCCNC(=O)COCCOCCNC(=O)CC[C@H](NC(=O)CCCCCCCCCCCCCCCCCCC(=O)O)C(=O)O)NC(=O)[C@H](C)NC(=O)[C@H](CCCCN)NC(=O)[C@H](CCCCN)NC(=O)[C@H](CCC(=O)O)NC(=O)[C@H](CC(=O)O)NC(=O)[C@H](CC(C)C)NC(=O)[C@H](Cc1ccc(O)cc1)NC(=O)[C@H](CCCCN)NC(=O)[C@H](CO)NC(=O)[C@H](Cc1ccc(O)cc1)NC(=O)[C@H](CC(=O)O)NC(=O)[C@H](CO)NC(=O)[C@@H](NC(=O)[C@H](Cc1ccccc1)NC(=O)[C@@H](NC(=O)CNC(=O)[C@H](CCC(N)=O)NC(=O)C(C)(C)NC(=O)[C@@H](N)Cc1c[nH]cn1)[C@@H](C)O)[C@@H](C)O)C(C)C)C(=O)N[C@@H](CCC(=O)O)C(=O)NCC(=O)NCC(=O)N1CCC[C@H]1C(=O)N[C@@H](CO)C(=O)N[C@@H](CO)C(=O)NCC(N)=O`, the tmax,ss was 12 h (human, plasma; subcutaneous, 16 mg weekly, week 20, cohorts 1 and 2).
With `COc1ccc(C[C@@H](C)[C@@H](C)Cc2ccc(OC)c(OC)c2)cc1OC` the AUC(0-t) was 24800 ± 15300 ng·h/mL (beagle dog female, plasma; oral, 1000 mg/kg/day, day 1).
`C=CC(=O)NC1CCN(c2ncc3ncnc(Nc4ccc(Oc5ccc6c(c5)ncn6C)c(C)c4)c3n2)CC1` has a renal clearance of 0.115 to 0.594 mL/min (healthy male volunteers, urine; oral, 60 mg, 0 to 24 h).
With `O=C1NC(=O)/C(=C/c2ccc3ncnc(N4CCCCC4)c3n2)S1` the body weight was 19.4 g and 14.4 g and 21 g and 16.7 g (NSG mice; dose not given, day 4).
`CCO[C@H]1CCN(Cc2c(OC)cc(C)c3[nH]ccc23)[C@H](c2ccc(C(=O)O)cc2)C1` — result for “incidence impaired fasting glucose”: 0% (PNH patients, active haemolysis; oral, 50 mg, 4 weeks, treatment).

Excerpt of the above:
`FC(F)(F)c1ccc(CNc2ccc(Cc3c[nH]c4ncc(Cl)cc34)cn2)cn1` — result for “treatment-related adverse events”: 0% (item: Arthralgia; patients with advanced solid tumours, non-TGCT cohort; oral, 1000 mg/day, any grade).
`CN(C)C(=N)N=C(N)N`: “subjects with adverse event” 0% (item: vessel puncture site pain; healthy men; oral, dose not given, 8 days, treatment-emergent, crossover trial).
The Vss of `CC1(C)CCC(CN2CCN(c3ccc(C(=O)NS(=O)(=O)c4ccc(NCC5CCOCC5)c([N+](=O)[O-])c4)c(Oc4cnc5[nH]ccc5c4)c3)CC2)=C(c2ccc(Cl)cc2)C1` is reported as 4.04 L/kg (human male, plasma; oral).
Under “mean plasma concentration”, `CCN1CCN(Cc2ccc(NC(=O)c3ccc(C)c(NC(=O)c4cncc(-c5cccs5)c4)c3)cc2C(F)(F)F)CC1` is recorded as 0.488 µg/mL (LC-MS/MS; C57BL/6 mouse, plasma; intraperitoneal, 10 mg/kg single dose, 0.5 h).
